# Measurements of several laboratories.
# Parts stem from different laboratories: compare values within a part only.

# Sample 1 — method: protein binding microarray; molecule type: double-stranded DNA, one strand shown; matrix: in vitro; concentration: not given; reference: not given; reading: higher = stronger binding
# Target: Histone acetyltransferase KAT6A, winged helix 2, GST fusion (KAT6A, Homo sapiens, UniProt Q92794, residues 85-181)
# Notes: 8-mer, flanks averaged, mean of 2 arrays, mostly near background
# Residues (chain): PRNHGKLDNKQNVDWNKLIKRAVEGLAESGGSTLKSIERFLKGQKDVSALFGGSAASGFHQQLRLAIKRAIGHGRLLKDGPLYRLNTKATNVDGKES
Strand,E-score
AGTAACAT,-0.145
ACGCTTTC,-0.133
GGCATAGA,0.0135
CGCTCTTA,0.127
CTCGCAAA,0.0262
ATTTCTGC,0.244
ATTCACAC,-0.00749
GCACCAGC,0.084
AATGGGGG,-0.147
AGCCACCC,0.031
ATCTCAAA,-0.0241
AATTCAGT,-0.221
ACAGATAC,-0.0442
GCTCCCGA,-0.00685
CCTTTCCC,0.0876
AACCTAGG,-0.04
GACGCTCA,-0.0562
CGGTGACA,0.054
CCTCCTCC,0.211
AAAATTTA,0.0728
GACATTCC,-0.132
ACAGATGG,-0.246
AAGTTTAC,0.0856
AGTAGACT,-0.105
GTTCTTGA,0.0207

# Sample 2 — method: competition protein-binding microarray; molecule type: double-stranded DNA, one strand shown; matrix: in vitro; concentration: 2 µM; together with: Pho4 competitor, 0.05 µM; reading: higher = stronger binding; shared flanks, not repeated: … GTCTTGATTCGCTTGACGCTGCTG
# Target: Centromere-binding protein 1, full length, His-tagged (CBF1, Saccharomyces cerevisiae, UniProt P17106, residues 1-351)
# Sequence of UniProt P17106 (whole entry, looked up): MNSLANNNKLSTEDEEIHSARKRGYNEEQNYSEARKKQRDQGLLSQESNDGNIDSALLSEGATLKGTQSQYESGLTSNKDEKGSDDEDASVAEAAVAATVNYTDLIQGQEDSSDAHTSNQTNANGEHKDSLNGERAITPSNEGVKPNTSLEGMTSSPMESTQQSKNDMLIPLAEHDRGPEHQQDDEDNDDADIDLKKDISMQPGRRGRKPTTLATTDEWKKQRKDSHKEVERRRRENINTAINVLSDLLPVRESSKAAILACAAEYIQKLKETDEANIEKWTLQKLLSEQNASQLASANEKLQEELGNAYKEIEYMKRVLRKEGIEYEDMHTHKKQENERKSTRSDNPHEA
# Notes: whole 60-bp probe, lowest competitor level
Strand,fluorescence intensity [a.u.]
CAGAATCGCATACTCCACGTGAGAACAAGAAAAAAT,665
CGGGGTTAAGTTTGACCAGTGGGTGGCTTGCAGCAG,61.3
TGACACTTCATGTTACACGTGAGGAGCTTCACCTTC,1100
TTACAATAATAAAAGCACGTGACAAAGTCCCTAGAT,8690
CGGGGTTAAGTTTGACTAGTGGGTGGCTTGCAGCAG,80.5
TTTAACCTCTAGTAAGAAGGACCCGGCACTTATTGT,51.7
AATGCTGAGAGTAGGCACATGGAGTAGCTTGAGTCA,85.8
TTACGGCCATTTCTGCTCGTGGTGAAGATCAAGTGT,73.8
AAATTACTAAGTTGGTAAGTGGGTGACGCCGTATGA,76.3
CATGCCGAGAAGTTACTCGTGCAAATCACTACGATA,82.5
CCGCAAGTATGCTGTCATGTGTGCTTAGCAATTACG,247
GTCTTGTCTCATTGGCACGTGTTTTTCCCCACTTCA,1950
GCGCGATAGCGGCAGCGCGTGGCCGGGCAAGGGTCT,61
TATGGGTTGTGAAGTCACGTGGTTTGGGTTCAAATC,13300
CGCATATTTTACTGTCATGCTTCTGTCAAGAAAAAG,240
TGCGCAACAACTTGATCCGTGGGTGTATGTCTAGAA,65.4
CGTTCAAAGCCTTTTCACGTTGAGCATCAGCCTTAG,80.4
CCTCATGGAGATGAGCACATGCTACAACTAATAACG,315
GTCTTGTCTCATTGAGTAGTGGGTGTCCCCACTTCA,88.1
TCAGCCTGCTGGATGCACGTGCGTCTCGGCGCCGCC,702
TCATTAAAAACGCTTCACGTGATGGTTACTTGCATA,3550
CTTTCCCGATCTTGTCCAGTGGGTGTAGCACATTTG,81.8
AAAGGCCACAAGTTGCGCATGCCTTTTTGCAATGTT,70.1
ACTTCTCCTCTGATCTTCGTGATGGGAGTTTTGAGT,73.8
TACTTACCCTACCACCACATGCCGTATCCACCCTCA,50.3

# Sample 3 — method: RNA Bind-n-Seq; molecule type: RNA; matrix: in vitro; concentration: not given; reference: input RNA pool; reading: higher = stronger binding
# Target: RING finger protein unkempt homolog, zinc fingers 1-6, GST-SBP tag (UNK, Homo sapiens, UniProt Q9C0B0, residues 30-357)
# Sequence of UniProt Q9C0B0 (30-357, looked up): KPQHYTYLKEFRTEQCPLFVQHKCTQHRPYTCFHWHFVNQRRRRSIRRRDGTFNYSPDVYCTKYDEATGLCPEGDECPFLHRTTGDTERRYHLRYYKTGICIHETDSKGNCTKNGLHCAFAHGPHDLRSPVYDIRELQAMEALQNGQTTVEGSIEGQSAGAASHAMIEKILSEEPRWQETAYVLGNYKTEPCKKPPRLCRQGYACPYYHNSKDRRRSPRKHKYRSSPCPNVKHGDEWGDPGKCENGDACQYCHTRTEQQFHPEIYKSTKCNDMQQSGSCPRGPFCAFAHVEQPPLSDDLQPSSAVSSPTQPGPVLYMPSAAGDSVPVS
# Notes: RNA with constant flanks, human-mouse chimeric sites, ends assumed
# Shared flanks, not repeated: GGGAGUUCUACAGUCCGACGAUC … CAACAGAGGAUUGAGCAUCA
Strand,bound/input enrichment
GAAUCCUACUCAGGCGGAUUUUGCAACACCAAGCUCACAGCAGCAGCAUCUUAGUCACAGUUAGGUAGUUUUGGGGCUCUGUGGCCAUGGUUUUACUCACAUGCAGGUUUGGAAAAUGUA,2.54 ratio
GAAUCCUACUCAGGCGGUCCCACAACAACCAAGCUCACAGCAGCAGCAUCUUAGUCACAGUAGGGUAGUUUUGGGGCUCUGUGGCCAGGGUUUUAUUCACAUGCAGGUUUGGAAAAUGUA,0.818 ratio
AGAGAAAUGAGAAAGAAUCUCACACAAGAAGAGAUGCAAAGAAUGUCUACUAGAGUCCUUUUGGCGACUCUUUCCAUUCCUAUUACUCCUGAGCGAACUGAUAUUGCUCGACUUCUGGAU,0.254 ratio
AAAGCCCAAGUAUUUUGAAAAAACUCGAACAGAUUUAACAAGGGUAGCCAGCUUGGAGUCUAGCAACUUGCCAAUGUGUUUACCAAUCUGGGGGCUUGUUUUUCUUUCCCUUCCUUAAAU,0.362 ratio
CGCUUGGAUGAGGCGGGUGUCACAGAUGAAGUGCUAGAUUCUGCCAUGCAAGCCUUCCUUCUGGAGGUUAUCGUUAAACAUGGGGAGCCGGCACCUUAUUUAUGUAAUAAAGAUCCUUUU,0.107 ratio
GCACUUCUCAAAUACUGGCCAAAGACUCACAGUCCAAAAGAAGUAAUGUUCUUAAAUGAAUUAGAAGAAAUUUUAGAUGUCAUUGAACCAUCAGAGUUUGUGAAGAUCAUGGAACCCCUU,0.6 ratio
GAAUCCUACUCAGGCGGAUUUUGCAACACCAAGCUCACAGCAGCAGCAUCUUAGUCACAGUAGGGUAGUUUUGGGGCUCUGUGGCCAUGGUUUUACUCACAUGCAGGUUUUGAAAAUGUA,0.663 ratio
GUGACUGGUGUUAAGAUUUCCCCUCAGCAAAGAAGUGCAGUAGUCACCAUAAUUCCAUCUGUGGUGAGUGCCAGUCAGAUUGUGGAGCUGGUUCCAGACCUCAGUUUAGACAUGGGAACU,0.159 ratio
UUGAAAACUGAUUCAAGUAAGUUUGAGUAUCACAAUGUUAGCUUUCUAAUUCCACACAAGUACUUGGUUUUUACAGUUUAUAAUCUGACAUCACCCCAGCGCCAUUUGUAAAGAGCAACU,0.56 ratio
CUUUUUAAGAAGAUAUGUGAUGGGAUCUUUUAUACCCCUCAAUAUUUAAACCCUUCAGUAAUCAGCCUUUUGAAACAUAUGCUGCAGGUGGAUCCCAUGAAGAGGGCCACAAUCAAAGAU,0.228 ratio
UUAAUCCCCUUCGUUGCUCCCCCACUUCUCAUGGUAAUAACAAAGUCUUAUAUCCCCGUCCUAGCUUUUACUCAGAUGGCUUAUGGAGCCGGUUUCCUAGCUUUCUUGGGAGGGAUCAGA,0.895 ratio

# Sample 4 — method: RNA Bind-n-Seq; molecule type: RNA; matrix: in vitro; concentration: 365 nM; reference: no-protein control; reading: higher = stronger binding
# Target: RNA binding protein fox-1 homolog 2, RRM domain, GST-SBP tag (RBFOX2, Homo sapiens, UniProt O43251-10, residues 100-194)
# Notes: natural RNA segment, single round, ends assumed
# Shared flanks, not repeated: GGGAGUUCUACAGUCCGACGAUC … UGGAAUUCUCGGGUGCCAA
# Target sequence (chain): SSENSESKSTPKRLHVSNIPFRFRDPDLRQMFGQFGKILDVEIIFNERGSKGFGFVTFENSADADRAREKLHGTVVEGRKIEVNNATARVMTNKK
Strand,RBNS enrichment (R)
UCCUAACAAGUGUAUCUCGAUUAAUAACCUGCCAGUCCCAGAUCACACAUCAUCAUCGAAGUCUUCCCCAGUUAUAAAGAGGUCACAUAGUCGUGUGGGUCGAGGAUUCU,0.355
CUCAUUCACUGCCAGACCCCACAUGGAGAGGCACCCAAAAGGAGAAGUUGACCAUUCCAUGUCUCAAGUAUGAGGACCCAGGGACCCCAGGGAAUCUGUUUUCUAUUUAC,0.413
CUAGAAAGGGGCAACACAGGGUACUACUUGAACUUUCCUAUCACAGCUCCCAUGCCACAGAGGGACAGACCCCUGCUGUCCUGCCCUCUUGCCACUGGUGAGAGAAGGCC,0.333
GUGAGACCUGCUCUUUACAGAUGGUAUUUUGAUAGAUACUGGAGUUUGUCUGUAUUAUAUCUGUGCCCCUUCUUUUAAGAACAAUGUUACAUUAUGUUCCUUUGGAUAAA,0.329
UUAAUUAUUAAAGUGCUCCAAAAUGAAAGUUAAGUUUAAUGUCUGUCCUUUCCUUCUAAUUUUAGAAGUUCUGUUGAGAAACACAAACUGCAAAUUUAAGUCAGCAUUUU,0.683
GGAAACUAAGAUAAACUUAGUGUAUCUGAGAAGAAUACCUGUCCAUCUUGCUACCCGCUUUUGCCUGACUCAGACUCCAGCUCUCAUACAGCUCUGUCUGCCACACACGU,0.258
AAUUCUUUCCCUAAAAUGUGUGGAAAAGGCCACAUCAUGAGGACUGGUGUGAGUUGGGGUAGGGUCCCCAGAGUCUCAGGAAAGAAGCUAGAUCACACUGAUUCUCCUGC,0.537
GGGAGGGGUGGCAGACAGGAAGAAAACAUGUCCAGGCCCCUGGUCUCCAUAGAGAAUGGUGCUUUGUCCAAGAAAACGUAUGAGUUUCUGAUUCUCCGGGAGCCGUUCAA,0.397
AUAAAACAUUCUGUUUAAGUGUUUUUCUUACGUUUUUCUCAAUGAGUUAAUCAACAAGUAUUUAUUAUGUGCUGAUAUCUUUGUUUUAGAUGCUUUAAAGGAGACAGGAA,0.338
CCCAUGUGAUGCCCUGUGCUGUAAGAUAUCAGAAAGACCUGGAACAAGGCAAACUUUAUGUCCUCCUGGCAUGUUAUUGAUAACAGAGCCAGGAAGUCCAGUGUACAUUA,0.36
GCUGCGUAGCUGUGUUGUUUCCUGUUAUGAGCAUUGGAAAUUGGGUUCUCCUUCUGUGAGCAUGGAGUUGAAUGGAAUGCCCACCAGGCCGAGUCUUCUUAGAUGACUGA,10.4
GGAAAAGAUGCCAUAUCCCUCUAAAUCUAGUGAUUAGACCUAGGAUCACCCUGUCUCUUUACCACUAACCUGUGAGGUGUCGUCACCAGAGGACACCUGAGGCCUUGACA,0.225

# For quick reference, copied from above (sample 2):
Strand,fluorescence intensity [a.u.]
CGGGGTTAAGTTTGACCAGTGGGTGGCTTGCAGCAG,61.3
TGACACTTCATGTTACACGTGAGGAGCTTCACCTTC,1100
TTACAATAATAAAAGCACGTGACAAAGTCCCTAGAT,8690
CGGGGTTAAGTTTGACTAGTGGGTGGCTTGCAGCAG,80.5
TTTAACCTCTAGTAAGAAGGACCCGGCACTTATTGT,51.7
AATGCTGAGAGTAGGCACATGGAGTAGCTTGAGTCA,85.8
TTACGGCCATTTCTGCTCGTGGTGAAGATCAAGTGT,73.8
AAATTACTAAGTTGGTAAGTGGGTGACGCCGTATGA,76.3
CATGCCGAGAAGTTACTCGTGCAAATCACTACGATA,82.5
CCGCAAGTATGCTGTCATGTGTGCTTAGCAATTACG,247
GTCTTGTCTCATTGGCACGTGTTTTTCCCCACTTCA,1950
GCGCGATAGCGGCAGCGCGTGGCCGGGCAAGGGTCT,61
